Published values of several laboratories.
Parts stem from different laboratories: compare values within a part only. Substitutions count along the parent as printed.

Block 1 — method: DHFR PCA, deep sequencing; matrix: yeast; added: (+)-ABA 58 µM; relative to: wild-type fitted maximum; reading: higher = stronger binding
Target: ABI1, truncated, D143A, DHFR fusion (Arabidopsis thaliana)
Notes: methotrexate growth selection, single substitutions
Parent: PYL1, truncated, DHFR fusion (Arabidopsis thaliana); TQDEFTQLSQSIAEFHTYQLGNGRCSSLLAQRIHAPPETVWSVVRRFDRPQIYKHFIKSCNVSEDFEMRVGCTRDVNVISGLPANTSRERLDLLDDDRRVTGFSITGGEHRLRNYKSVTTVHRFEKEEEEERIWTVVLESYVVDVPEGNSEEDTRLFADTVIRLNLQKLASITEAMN
Variant | relative binding score
T73H | 82.5%
E174W | 36.6%
E152N | 76.2%
S171R | 84.8%
T154Q | 0.597%
R46K | 73.8%
V62M | 76.6%
I79E | 59.8%
K116E | 50.7%
V100A | 92.6%
S11N | 64.3%
G71C | 16.8%
I172Y | 77.8%
V76Q | 4.51%

Block 2 — target: CCNF, cyclin fold, Cln2 fusion (human); method: yeast growth competition, sequencing; matrix: yeast; notes: weak parent motif; relative to: not given; reading: higher = stronger binding
Parent: PKN2 docking peptide (human); VSAVQKLDFSDTM
Variant | normalised enrichment score
S2V | -0.272
V1Q | 1.5
T12F | 1.25
T12A | 0.869
D11I | 0.403
F9E | -0.562
D8S | 0.499
T12N | 0.515
F9S | -0.132
F9R | 0.718
S2D | 0.19
M13Y | 1.22
V1P | 1.35
D11Y | 0.71
K6F | -0.115
D8E | 0.572
T12K | 0.601
T12H | 1.07
M13I | 0.65
S2L | 0.0967
S2N | 0.755

Block 3 — method: RNA Bind-n-Seq; form: RNA; matrix: in vitro; tested at: 365 nM; relative to: no-protein control; reading: higher = stronger binding
Target: RNA binding protein fox-1 homolog 2, RRM domain, GST-SBP tag (RBFOX2, Homo sapiens, UniProt O43251-10, residues 100-194)
Notes: natural RNA segment, single round, ends assumed
Residues (chain): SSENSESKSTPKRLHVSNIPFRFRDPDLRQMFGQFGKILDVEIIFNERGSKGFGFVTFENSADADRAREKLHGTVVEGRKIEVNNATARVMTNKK
Sequence | RBNS enrichment (R)
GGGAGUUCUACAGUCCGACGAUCUUGUCAACAGGAGGCUCAAGAUGUGAGAGGUGUGAGUCAGACGCCCGAGGAACUUACAGGAGGAGCCUAGGUCUGAAGUCAGUGUUAGGGAAGGGCCCAUAGCCACUUCCUGGAAUUCUCGGGUGCCAA | 0.955
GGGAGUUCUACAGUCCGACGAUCAGGUCUCUGGUCUCCCUACCCCUGCUGUGCUGAUCACAGUCCCUCCCAGUUACCACUAGGACAUUCUCUAGUAGAUCCAUUUUGCUGUCACUUUAUUCUAUGGCUAGAAAUGGAAUUCUCGGGUGCCAA | 0.546
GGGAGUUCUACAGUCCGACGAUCCAUUUUUAUUGUAAUUUUAGCCUUAGCGUGUGGGGGUUUAUCCCUUUUUGUUAGCUGUGUACAGAAUGUGUAUCCUAUCUCCUCCCCUCCUUGGCUAAUCAUUGGCAGGGUGGAAUUCUCGGGUGCCAA | 0.727
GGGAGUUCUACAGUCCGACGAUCGGGCUGCGGAAGGUACAAGGCGAGGUUAUGGGGCUGCUCUUCACUUUUUGUUUUUAAAUGAAGACCUCUGAAAAGCACAGGGCCUCUGCUCCUUCUGGCUCUGAUGUCCUUGGAAUUCUCGGGUGCCAA | 0.223
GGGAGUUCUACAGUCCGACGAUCUGGACCCUUGAUCCUGGAGGACCCUGGAAGGGGUGGUUCCCUGUAAGCUCCCAAGAUCUAUGUUCCUGGGAGUUUCCCAAACUCAUGAUGGAGUUGGUGACAAGAGCAGAUGGAAUUCUCGGGUGCCAA | 0.427
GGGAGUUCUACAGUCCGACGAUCGAAGACUGGCUCAGCAAGUGGAGGUUUCAAUGUAUUUUUCAGUUGGCUCAUCAGCCAGCAUUGGUGAAUAUUCAGUUUAGGGGAACAGUUCUAGGGAGUGAGACAUUUUUUGGAAUUCUCGGGUGCCAA | 0.586
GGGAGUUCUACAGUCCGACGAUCCUGUAGAUGCACAGUAGUGUUUUCCCAGAGCAUGUUCAAAAGCCCUGGGUUCAAUCACAAUACUGAAAAGUAGGCCAAAAAACAUUCUGAAAAUGAAAUAUUUGGGUUUUUGGAAUUCUCGGGUGCCAA | 0.388
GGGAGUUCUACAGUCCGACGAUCCCACUUCUCGUUGCUGCUCUGUGGCACAUAUCGGAAGCAGUACAGCGCGCGGCUCUACACGCUUGGGUAGCGGGAUAAGUCACUGUUUUCUUUAUUUCUUUAAAAAAAAAUGGAAUUCUCGGGUGCCAA | 0.302
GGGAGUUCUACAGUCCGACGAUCAGCUGGAAGCCUCUGAAAGUUAUUAAAGGACAGAAUCCAAAAGAAUGCCUUUAAUUCUUGUCUGAGAAUCUUGGCCAUGUGUCAGAUUAUCAGAACAAUUUUGUUACCAGUGGAAUUCUCGGGUGCCAA | 0.324
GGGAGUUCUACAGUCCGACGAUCAAGAUGAUUAGCCUUCCUUGAAAUAAGUAUUUGUGGAUGGGUGUUAAAUUAAAAUUUCCAGAAUACACUGUCCAUCUCACACACUCUGAAAUCUAAUAUAUGAAGUAGUAUGGAAUUCUCGGGUGCCAA | 0.617
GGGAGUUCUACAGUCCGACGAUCUGAUACUAAUAUAAUUAAGUUCAUCUUUGAAAUACAUCUUUGUGCGUAGAGCCAAAAAAAGAGAUAAAAUUAAUAAUAGUUCACUUGUUAUUUGAGAUUAAUUUGGCAUUUGGAAUUCUCGGGUGCCAA | 0.339
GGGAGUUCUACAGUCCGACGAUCCACCCCAGAAAAUCACUGUGAAAUUUCAUGAUUGGCUUAAAGUGAAGGAAAUAAAGGUAAAAUCACUUCAGAUCUCUAAUUAUCAAGCGAAGCUUUUAUUGUUACACUUCUGGAAUUCUCGGGUGCCAA | 0.396

Block 4 — method: protein-binding microarray; form: double-stranded DNA, one strand shown; matrix: in vitro; tested at: 250 nM; notes: 60-bp whole probe; added: salmon DNA 0.4 mg/ml; relative to: random background probes; reading: higher = stronger binding; constant ends, left off below: GCCTAGCAC … GTCTTGATTCGCTTGACGCTGCTG
Target: Interferon regulatory factor 5, full length, phosphomimetic (IRF5, Homo sapiens, UniProt Q13568-2, residues 1-514, K96S/S451D/S453D/S456D/S462D)
Sequence | log fluorescence [z-score]
GACGGTTCCCTTTTCCTCACGTGCTAG | 0.399
GACTCTTTCTGTCAGTTTTGGTGCTAG | 5.27
TTAGGGCTGGGACTGGGTTAGTGCTAG | -0.375
GACGATTTTGGGACTGGAGACGTGCTA | -0.184
TTAGATATCAGTTTCCATTAGTGCTAG | 3.22
CAACATCTGCAAGATCCACAAGTGCTA | 0.0281
GACGGTTTCCGTTTCCTGACGTGCTAG | 1.46
AGTTGTTTTAAATTCTAATTGTGCTAG | 1.02
TTAGGTCTCGGTACCGGTTAGTGCTAG | 0.487
TCATTTTTCACTATTGCACTGTGCTAG | 2.45
TTAGGTATCTGACTGGGTTAGTGCTAG | -0.188
GAGGGTCTCGGTCTCGGGACGTGCTAG | -0.126
TTAGATCTCAGTTTCGACTAGTGCTAG | 7.37
GACGGTTACGGGTTTCGGGACGTGCTA | 1.99
GGTCTGGCTGGCTCCTGCACGTGCTAG | -0.989
TCATGTTTTTTTCTATAACTGTGCTAG | 1.34
CACTATTTAAGAACTATGCACGTGCTA | 0.373
GACGATTTCGGGTACCGAGACGTGCTA | 3.8
GAAGGTTTCGGGTTTCGGGACGTGCTA | 7.58
TGGAACTTAAAAGAAAGATAGTGCTAG | 0.683
CTGTTTCCATCTCTCAAAAGGTGCTAG | 2.11
GACGATTTCAGTCTCGATACGTGCTAG | 2.02
TCTCGCTTCATCTCCCAGACTGTGCTA | 1
TTAGGTATCGGCCTGGGTTAGTGCTAG | 2.81
TTAGAGCTGAGTCTCGATTAGTGCTAG | 0.448
